{"data": "Published values pooled from the literature", "note": "Every numbered part comes from another study and shows a few of its results, in no order. Changes are numbered by the printed parent chain."}
{"data": "Set 1", "target": "Interferon regulatory factor 5, full length, phosphomimetic (IRF5, Homo sapiens, UniProt Q13568-2, residues 1-514, K96S/S451D/S453D/S456D/S462D)", "method": "protein-binding microarray", "form": "double-stranded DNA, one strand shown", "sample": "in vitro", "tested at": "250 nM", "notes": "60-bp whole probe", "added": "salmon DNA 0.4 mg/ml", "reference": "random background probes", "direction": "higher = stronger binding", "constant ends, left off below": "GCCTAGCAC … GTCTTGATTCGCTTGACGCTGCTG"}
{"Strand": "TTAGGTATCCTTTTCCTTGAGTGCTAG", "log fluorescence": "0.702 z-score"}
{"Strand": "TCCCATTCTGAATTCGAATGGTGCTAG", "log fluorescence": "0.204 z-score"}
{"Strand": "TATTGTGTCAACTTTCTCTGCGTGCTA", "log fluorescence": "1.1 z-score"}
{"Strand": "GACGGTTTACTTCTCCTGACGTGCTAG", "log fluorescence": "0.0776 z-score"}
{"Strand": "TGGCCTATTTATATGAGATGGTGCTAG", "log fluorescence": "0.0242 z-score"}
{"Strand": "TCATGGATGTGTTTTAAACTGTGCTAG", "log fluorescence": "-0.208 z-score"}
{"Strand": "TTAGGTTTTGGTTCCGGTTAGTGCTAG", "log fluorescence": "4.1 z-score"}
{"Strand": "TTAGGACTGGGGTTTCGGATAGTGCTA", "log fluorescence": "1.87 z-score"}
{"data": "Set 2", "Substitution": "R90C", "target": "ABI1, truncated, D143A, DHFR fusion (Arabidopsis thaliana)", "method": "DHFR PCA, deep sequencing", "sample": "yeast", "notes": "methotrexate growth selection, single substitutions", "reference": "wild-type fitted maximum", "direction": "higher = stronger binding", "parent": "PYL1, truncated, DHFR fusion (Arabidopsis thaliana); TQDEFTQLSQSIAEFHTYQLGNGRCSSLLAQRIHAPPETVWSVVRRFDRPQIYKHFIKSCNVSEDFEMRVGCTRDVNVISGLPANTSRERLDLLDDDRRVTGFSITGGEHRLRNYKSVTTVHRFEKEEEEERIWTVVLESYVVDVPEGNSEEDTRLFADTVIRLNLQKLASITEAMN"}
{"added": "(+)-ABA 0.0091 µM", "relative binding score [%]": -4.93}
{"added": "(+)-ABA 17 µM", "relative binding score [%]": 55.9}
{"added": "(+)-ABA 710 µM", "relative binding score [%]": 95.1}
{"added": "(+)-ABA 200 µM", "relative binding score [%]": 81.7}
{"added": "(+)-ABA 4.8 µM", "relative binding score [%]": 33}
{"added": "(+)-ABA 0 µM", "relative binding score [%]": -2.54}
{"data": "Further values, each from its own experiment", "P1": "PafA, mature enzyme, eGFP fusion (Elizabethkingia meningoseptica, UniProt Q9KJX5); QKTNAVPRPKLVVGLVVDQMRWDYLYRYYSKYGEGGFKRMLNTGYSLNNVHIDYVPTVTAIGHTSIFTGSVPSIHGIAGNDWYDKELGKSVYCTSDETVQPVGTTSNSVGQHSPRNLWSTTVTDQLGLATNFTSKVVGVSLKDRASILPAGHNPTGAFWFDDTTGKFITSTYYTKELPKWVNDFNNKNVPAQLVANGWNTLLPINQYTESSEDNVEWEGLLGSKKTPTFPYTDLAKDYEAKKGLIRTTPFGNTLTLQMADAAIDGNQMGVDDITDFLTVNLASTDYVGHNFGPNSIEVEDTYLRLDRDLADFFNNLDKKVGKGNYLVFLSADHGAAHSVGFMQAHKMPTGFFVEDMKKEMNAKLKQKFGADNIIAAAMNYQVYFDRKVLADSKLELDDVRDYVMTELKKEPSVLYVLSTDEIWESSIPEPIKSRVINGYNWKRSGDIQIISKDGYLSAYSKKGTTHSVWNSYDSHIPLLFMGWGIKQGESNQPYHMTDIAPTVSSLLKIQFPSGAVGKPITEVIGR"}
{"Substance": "P1 G484A", "target": "vanadate, free oxyanion", "assay": "microfluidic competitive inhibition", "system": "in vitro, cell-free expressed", "conditions": "not given, derived from inhibition constants, unchanged parent 676 nM", "scale": "lower = stronger binding", "quantity": "oxyanion analog dissociation constant", "result": "604 nM"}
{"Substance": "PhoQ, residues 284 288 289 292 302 303 NLGVHL", "target": "PhoP, residues 12 14 15 18 19 LHSVQ (Escherichia coli, UniProt P23836)", "assay": "Sort-seq, measured: YFP reporter", "system": "E. coli", "conditions": "PhoQ-PhoP variant library, added: 10 µM Mg2+", "scale": "reference: high Mg2+ state, higher = stronger signaling", "quantity": "fold induction", "result": 3.12}
{"note": "A few entries again (further values, each from its own experiment):"}
{"Substance": "P1 G484A", "target": "vanadate, free oxyanion", "assay": "microfluidic competitive inhibition", "system": "in vitro, cell-free expressed", "conditions": "not given, derived from inhibition constants, unchanged parent 676 nM", "scale": "lower = stronger binding", "quantity": "oxyanion analog dissociation constant", "result": "604 nM"}
